Measurements of several laboratories.
Compare with care: the assays were run in different laboratories. ± marks the error that the study gave.

CC[C@H](C)[C@H](NC(=O)[C@H](Cc1c[nH]c2ccccc12)NC(=O)[C@H](Cc1ccc(O)cc1)NC(=O)[C@H](CCCCN)NC(=O)[C@H](CC(C)C)NC(=O)[C@@H](N)CO)C(=O)N[C@@H](CCCNC(=N)N)C(=O)N[C@@H](Cc1ccc(O)cc1)C(=O)N[C@@H](CCCCN)C(=O)N[C@@H](CCCNC(=N)N)C(=O)N[C@@H](CCC(N)=O)C(=O)NCC(=O)N[C@@H](C)C(=O)N[C@@H](C)C(=O)N[C@@H](CCCNC(=N)N)C(=O)N[C@@H](Cc1ccccc1)C(N)=O — MIC (Listeria monocytogenes; broth dilution; KCTC 13064): 25 µM
CN[C@H](CC(C)C)C(=O)N[C@H]1C(=O)N[C@@H](CC(N)=O)C(=O)N[C@H]2C(=O)N[C@H]3C(=O)N[C@H](C(=O)N[C@H](C(=O)N[C@@H](CCCNC(=N)N)C(N)=O)c4cc(O)cc(O)c4-c4cc3ccc4O)[C@H](O)c3ccc(c(Cl)c3)Oc3cc2cc(c3O[C@@H]2O[C@H](CO)[C@@H](O)[C@H](O)[C@H]2O[C@H]2C[C@](C)(NCc3ccc(OCc4cn(CC(=O)N[C@H](C(=O)N[C@@H](CCN)C(=O)N[C@H]5CCNC(=O)[C@H]([C@@H](C)O)NC(=O)[C@H](CCN)NC(=O)[C@H](CCN)NC(=O)[C@H](CC(C)C)NC(=O)[C@@H](CC(C)C)NC(=O)[C@H](CCN)NC5=O)[C@@H](C)O)nn4)c(OC)c3)[C@H](O)[C@H](C)O2)Oc2ccc(cc2Cl)[C@H]1O — MIC (Staphylococcus simulans; broth microdilution; 22, cation-adjusted Mueller-Hinton broth): ≤ 0.003 µM
CC[C@H](C)[C@H](NC(=O)[C@H](CCCNC(=N)N)NC(=O)[C@H](CO)NC(=O)[C@H](Cc1ccc(O)cc1)NC(=O)[C@@H](NC(=O)[C@@H](NC(=O)[C@H](C)NC(=O)CNC(=O)[C@H](CCCCN)NC(=O)[C@H](CCCCN)NC(=O)CCNC(=O)CCCCCNC(=O)[C@H](CCCNC(=N)N)NC(=O)CCCCCNC(=O)[C@H](CCCNC(=N)N)NC(=O)[C@H](CCCNC(=N)N)NC(=O)CCCCCNC(=O)[C@H](CCCNC(=N)N)NC(=O)[C@H](CCCNC(=N)N)NC(=O)CCCCCNC(=O)[C@H](CCCNC(=N)N)NC(=O)[C@H](CCCNC(=N)N)NC(=O)CCCCCNC(=O)[C@@H](N)CCCNC(=N)N)C(C)C)[C@@H](C)O)C(=O)N[C@@H](CO)C(=O)NCC(=O)N[C@@H](CCC(N)=O)C(=O)N[C@@H](Cc1ccc(O)cc1)C(=O)N[C@@H](CCCCN)C(=O)O — MIC (Escherichia coli; broth microdilution; ATCC 25922, Mueller-Hinton broth): 6 µM
CCCCCCCCCCCC(=O)NCCCC[C@H](NC(=O)CCCCCCCCCCC)C(=O)N[C@@H](CCCCNC(=O)CCCCCCCCCCC)C(=O)NCC(=O)NCC(=O)NCC(=O)N[C@@H](CS)C(=O)N[C@@H](CCCNC(=N)N)C(=O)N[C@@H](CCCCN)C(=O)N1CCC[C@H]1C(=O)N[C@@H](CS)C(=O)N[C@@H](CCCNC(=N)N)C(=O)N[C@@H](CCCCN)C(=O)N1CCC[C@H]1C(N)=O — MIC (Candida albicans; broth microdilution; 58288, RPMI-1640; 48 h, 30 °C): > 128 µM
CC1C=CC=CC(C)C2C=CC3CC(C)(O)C(Cl)C(C)C3C2C(=O)C(Cl)(Cl)C(=O)C(C)C(=O)O1 (centres unmarked) — MIC (Staphylococcus aureus; MSSA clinical isolate, susceptible): 0.05 µg/mL
CC(C)(C)C(=O)OCOP(=O)(OCOC(=O)C(C)(C)C)C1CCCN(O)C1=O (centres unmarked) — CC50 (Hs-578T): > 100 µM
Cc1cc(C(=O)Nc2nc3cccc(C)c3n2[C@H]2CCCCN(C(=O)/C=C/CN(C)C)C2)ccn1 — cells in S phase (Trypanosoma brucei; propidium iodide flow cytometry; bloodstream form; concentration not given, 24 h): 16.4%
CC1(C)S[C@@H]2[C@H](NC(=O)[C@H](NC(=O)C3=C(O)C(c4ccccc4F)NC3=O)c3ccccc3)C(=O)N2[C@H]1C(=O)O (some centres unmarked) — MIC (Escherichia coli; broth microdilution; Keio mutant JW0146-2; 18 h, ferric hydroxamate uptake gene): 12.5 µg/mL
CCCCCCCCCC(=O)NCCCC[C@H](NC(=O)CCCCCCCCC)C(=O)N[C@@H](CCCCNC(=O)CCCCCCCCC)C(=O)NCC(=O)NCC(=O)NCC(=O)N[C@@H](CS)C(=O)N[C@@H](CCCNC(=N)N)C(=O)N[C@@H](CCCCN)C(=O)N1CCC[C@H]1C(=O)N[C@@H](CS)C(=O)N[C@@H](CCCNC(=N)N)C(=O)N[C@@H](CCCCN)C(=O)N1CCC[C@H]1C(N)=O — MIC (Candida albicans; broth microdilution; fluconazole-resistant 56214, RPMI-1640; 48 h, 30 °C): 32 µM
C#CCOc1ccc(CN[C@@]2(C)C[C@H](O[C@H]3[C@H](Oc4c5cc6cc4Oc4ccc(cc4Cl)[C@@H](O)[C@@H](NC(=O)[C@@H](CC(C)C)NC)C(=O)N[C@@H](CC(N)=O)C(=O)N[C@H]6C(=O)N[C@H]4C(=O)N[C@H](C(=O)N[C@H](C(=O)O)c6cc(O)cc(O)c6-c6cc4ccc6O)[C@H](O)c4ccc(c(Cl)c4)O5)O[C@H](CO)[C@@H](O)[C@@H]3O)O[C@@H](C)[C@H]2O)cc1OC — MIC (Staphylococcus simulans; broth microdilution; 22, cation-adjusted Mueller-Hinton broth): 0.616 µM
CC(C)CCCCCCCCC/C=C/C(=O)N[C@@H](CC(=O)O)C(=O)N[C@H]1CNC(=O)[C@@H]2CCCN2C(=O)[C@H](C(C)C)NC(=O)[C@@H](CN)NC(=O)CNC(=O)[C@H](CC(=O)O)NC(=O)CNC(=O)[C@H](CC(=O)O)NC(=O)[C@H](CC(=O)O)NC(=O)[C@H]2CCCCN2C1=O — MIC (Staphylococcus simulans; broth microdilution; 22, Mueller-Hinton broth, Mg2+ 10 mg/L; 16 h, 30 °C, with: Ca2+ 5 mM): 4 µg/mL
O=C1NC2(CC2)COc2ncc(F)cc2[C@H]2COCCN2c2ccn3ncc1c3n2 — organ-to-brain weight ratio (Sprague-Dawley rat, female, liver; oral, 2.5 mg/kg/day, 4 weeks, end of treatment): 618 ± 75.7%
COc1ccccc1-c1n[nH]c2nc(N[C@H]3CC[C@H](NS(=O)(=O)CC(C)C)CC3)ncc12 — relative abundance (bead binding, competition bead pull-down, measured: LINJ.35.4540; Leishmania donovani extract; 10 µM; baseline: vehicle): 0.86
CCCCCCCC(=O)NCCCC[C@H](NC(=O)CCCCCCC)C(=O)N[C@@H](CCCCNC(=O)CCCCCCC)C(=O)NCC(=O)NCC(=O)NCC(=O)N[C@@H](CS)C(=O)N[C@@H](CCCNC(=N)N)C(=O)N[C@@H](CCCCN)C(=O)N1CCC[C@H]1C(N)=O — MIC (Candida albicans; broth microdilution; 17546, RPMI-1640; 48 h, 30 °C): > 128 µM
CC(=O)N[C@@H](CC(C)C)C(=O)N[C@H]1CSSC[C@@H](C(=O)N2CCC[C@H]2C(N)=O)NC(=O)[C@H]([C@@H](C)O)NC(=O)[C@H](C(C)C)NC(=O)[C@H]([C@@H](C)O)NC(=O)CNC(=O)[C@H](CC(C)C)NC(=O)[C@H](Cc2ccccc2)NC(=O)[C@H](Cc2ccc(O)cc2)NC(=O)[C@H](CC(C)C)NC(=O)[C@H](CCCCN)NC(=O)[C@H](Cc2ccccc2)NC(=O)[C@H](CCCNC(=N)N)NC(=O)[C@H](CCC(N)=O)NC(=O)[C@H](CC(C)C)NC(=O)[C@H](CCCCN)NC(=O)[C@@H]2CCCN2C(=O)[C@H](CCCCN)NC(=O)[C@H](C(C)C)NC(=O)[C@H](CCCCN)NC(=O)[C@H](Cc2ccc(O)cc2)NC(=O)[C@H]([C@@H](C)O)NC1=O — MIC (Aeromonas hydrophila; broth dilution; 24 h): 1.25 to 2.5 µM
CCCCCCCC(=O)NCCCC[C@H](NC(=O)CCCCCCC)C(=O)N[C@@H](CCCCNC(=O)CCCCCCC)C(=O)NCC(=O)NCC(=O)NCC(=O)N[C@@H](CS)C(=O)N[C@@H](CCCNC(=N)N)C(=O)N[C@@H](CCCCN)C(=O)N1CCC[C@H]1C(=O)N[C@@H](CS)C(=O)N[C@@H](CCCNC(=N)N)C(=O)N[C@@H](CCCCN)C(=O)N1CCC[C@H]1C(N)=O — MIC (Candida albicans; broth microdilution; 58288, RPMI-1640; 48 h, 30 °C): 8 µM
[O-][N+]1=C(c2ccc(Cl)cc2)C2=NCCCCN2c2ccccc21 — MIC (Fusobacterium nucleatum): 0.25 to 0.5 µg/mL
C#CCNC(=O)C1(O/N=C(\C(=O)N[C@@H]2C(=O)N(OS(=O)(=O)O)C2(C)C)c2csc(N)n2)CC1 — MIC (Klebsiella pneumoniae; agar dilution; 2146 NDM-1): 8 µg/mL
CCCCCCCCn1cc[n+](CCCCOc2cc(OCCCC[n+]3ccn(CCCCCCCC)c3)cc(OCCCC[n+]3ccn(CCCCCCCC)c3)c2)c1.[Br-].[Br-].[Br-] — MIC (eight bacterial strains): ≤ 2 µM
CCCCCCCC(=O)NCCCC[C@H](NC(=O)CCCCCCC)C(=O)N[C@@H](CCCCNC(=O)CCCCCCC)C(=O)NCC(=O)NCC(=O)NCC(=O)N[C@@H](CS)C(=O)N[C@@H](CCCNC(=N)N)C(=O)N[C@@H](CCCCN)C(=O)N1CCC[C@H]1C(=O)N[C@@H](CS)C(=O)N[C@@H](CCCNC(=N)N)C(=O)N[C@@H](CCCCN)C(=O)N1CCC[C@H]1C(=O)N[C@@H](CS)C(=O)N[C@@H](CCCNC(=N)N)C(=O)N[C@@H](CCCCN)C(=O)N1CCC[C@H]1C(=O)N[C@@H](CS)C(=O)N[C@@H](CCCNC(=N)N)C(=O)N[C@@H](CCCCN)C(=O)N1CCC[C@H]1C(N)=O — MIC (Candida albicans; broth microdilution; CGMCC 2.209, RPMI-1640; 48 h, 30 °C): 16 µM
COc1ccc(C2=[N+]([O-])c3ccccc3N3CCCN=C23)cc1 — MIC (Fusobacterium nucleatum): 0.5 to 2 µg/mL
CCCCCC(=O)NCCCC[C@H](NC(=O)CCCCC)C(=O)N[C@@H](CCCCNC(=O)CCCCC)C(=O)NCC(=O)NCC(=O)NCC(=O)N[C@@H](CS)C(=O)N[C@@H](CCCNC(=N)N)C(=O)N[C@@H](CCCCN)C(=O)N1CCC[C@H]1C(=O)N[C@@H](CS)C(=O)N[C@@H](CCCNC(=N)N)C(=O)N[C@@H](CCCCN)C(=O)N1CCC[C@H]1C(N)=O — MIC (Candida albicans; broth microdilution; SP 3876, RPMI-1640; 48 h, 30 °C): 32 µM
CC(C)C[C@H](NC(=O)[C@@H](NC(=O)[C@H](CCCNC(=N)N)NC(=O)[C@H](CCC(N)=O)NC(=O)[C@H](Cc1ccccc1)NC(=O)[C@H](Cc1ccc(O)cc1)NC(=O)[C@H](CC(N)=O)NC(=O)[C@H](Cc1c[nH]c2ccccc12)NC(=O)[C@@H](NC(=O)[C@H](CCCNC(=N)N)NC(=O)[C@H](CCCCN)NC(=O)[C@@H](N)Cc1ccccc1)C(C)C)C(C)C)C(=O)N[C@H](C(=O)N[C@@H](CCCCN)C(=O)N[C@@H](CCCCN)C(=O)N[C@@H](Cc1ccc(O)cc1)C(N)=O)C(C)C — MIC (Listeria monocytogenes; broth dilution; KCTC 13064): 50 µM

Some of these lines once more:
CN[C@H](CC(C)C)C(=O)N[C@H]1C(=O)N[C@@H](CC(N)=O)C(=O)N[C@H]2C(=O)N[C@H]3C(=O)N[C@H](C(=O)N[C@H](C(=O)N[C@@H](CCCNC(=N)N)C(N)=O)c4cc(O)cc(O)c4-c4cc3ccc4O)[C@H](O)c3ccc(c(Cl)c3)Oc3cc2cc(c3O[C@@H]2O[C@H](CO)[C@@H](O)[C@H](O)[C@H]2O[C@H]2C[C@](C)(NCc3ccc(OCc4cn(CC(=O)N[C@H](C(=O)N[C@@H](CCN)C(=O)N[C@H]5CCNC(=O)[C@H]([C@@H](C)O)NC(=O)[C@H](CCN)NC(=O)[C@H](CCN)NC(=O)[C@H](CC(C)C)NC(=O)[C@@H](CC(C)C)NC(=O)[C@H](CCN)NC5=O)[C@@H](C)O)nn4)c(OC)c3)[C@H](O)[C@H](C)O2)Oc2ccc(cc2Cl)[C@H]1O — MIC (Staphylococcus simulans; broth microdilution; 22, cation-adjusted Mueller-Hinton broth): ≤ 0.003 µM
CCCCCCCCn1cc[n+](CCCCOc2cc(OCCCC[n+]3ccn(CCCCCCCC)c3)cc(OCCCC[n+]3ccn(CCCCCCCC)c3)c2)c1.[Br-].[Br-].[Br-] — MIC (eight bacterial strains): ≤ 2 µM
